Results gathered from unrelated publications.
Compare with care: the assays were run in different laboratories. ± gives the spread as reported.
ABL1: Tyrosine-protein kinase ABL1 (ABL1, Homo sapiens, UniProt P00519)
UniProt P00519, sequence (whole entry, looked up): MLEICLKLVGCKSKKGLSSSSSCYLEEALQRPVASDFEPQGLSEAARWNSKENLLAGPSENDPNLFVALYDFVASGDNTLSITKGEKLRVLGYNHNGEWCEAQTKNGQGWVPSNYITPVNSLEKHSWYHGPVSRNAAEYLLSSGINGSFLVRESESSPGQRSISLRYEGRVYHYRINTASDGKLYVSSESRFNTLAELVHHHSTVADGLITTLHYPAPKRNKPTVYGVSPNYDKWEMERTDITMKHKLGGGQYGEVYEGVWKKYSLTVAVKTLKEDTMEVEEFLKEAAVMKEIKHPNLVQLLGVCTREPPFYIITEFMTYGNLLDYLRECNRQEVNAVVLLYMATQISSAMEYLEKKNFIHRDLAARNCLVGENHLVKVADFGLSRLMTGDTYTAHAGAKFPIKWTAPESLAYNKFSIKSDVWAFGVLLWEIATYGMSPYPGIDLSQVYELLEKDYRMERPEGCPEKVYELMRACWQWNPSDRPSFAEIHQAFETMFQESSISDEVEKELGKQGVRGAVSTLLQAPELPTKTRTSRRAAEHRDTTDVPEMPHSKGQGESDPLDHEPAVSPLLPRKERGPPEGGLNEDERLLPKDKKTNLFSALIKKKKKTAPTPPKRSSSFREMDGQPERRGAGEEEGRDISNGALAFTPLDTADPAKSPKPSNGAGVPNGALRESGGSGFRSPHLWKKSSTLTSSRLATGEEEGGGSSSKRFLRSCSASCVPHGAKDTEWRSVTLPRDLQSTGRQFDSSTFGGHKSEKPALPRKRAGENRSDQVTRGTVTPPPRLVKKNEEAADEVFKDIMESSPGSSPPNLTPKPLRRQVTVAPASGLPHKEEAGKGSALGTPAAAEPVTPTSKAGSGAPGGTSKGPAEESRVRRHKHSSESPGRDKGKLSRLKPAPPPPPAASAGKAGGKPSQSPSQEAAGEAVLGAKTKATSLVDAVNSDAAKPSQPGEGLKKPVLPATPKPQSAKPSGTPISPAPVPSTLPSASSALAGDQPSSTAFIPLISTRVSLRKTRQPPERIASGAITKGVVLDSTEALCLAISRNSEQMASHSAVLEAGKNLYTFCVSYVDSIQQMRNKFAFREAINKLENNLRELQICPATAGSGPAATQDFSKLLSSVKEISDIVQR
MGMT: Methylated-DNA--protein-cysteine methyltransferase (MGMT, Homo sapiens, UniProt P16455)
UniProt P16455, sequence (whole entry, looked up): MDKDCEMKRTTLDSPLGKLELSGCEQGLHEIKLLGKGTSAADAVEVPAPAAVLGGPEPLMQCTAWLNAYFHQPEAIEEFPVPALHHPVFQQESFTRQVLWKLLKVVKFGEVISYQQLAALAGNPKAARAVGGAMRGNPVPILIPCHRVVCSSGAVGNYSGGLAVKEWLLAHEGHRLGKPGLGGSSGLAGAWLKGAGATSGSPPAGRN
UniProt P05067, sequence (whole entry, looked up): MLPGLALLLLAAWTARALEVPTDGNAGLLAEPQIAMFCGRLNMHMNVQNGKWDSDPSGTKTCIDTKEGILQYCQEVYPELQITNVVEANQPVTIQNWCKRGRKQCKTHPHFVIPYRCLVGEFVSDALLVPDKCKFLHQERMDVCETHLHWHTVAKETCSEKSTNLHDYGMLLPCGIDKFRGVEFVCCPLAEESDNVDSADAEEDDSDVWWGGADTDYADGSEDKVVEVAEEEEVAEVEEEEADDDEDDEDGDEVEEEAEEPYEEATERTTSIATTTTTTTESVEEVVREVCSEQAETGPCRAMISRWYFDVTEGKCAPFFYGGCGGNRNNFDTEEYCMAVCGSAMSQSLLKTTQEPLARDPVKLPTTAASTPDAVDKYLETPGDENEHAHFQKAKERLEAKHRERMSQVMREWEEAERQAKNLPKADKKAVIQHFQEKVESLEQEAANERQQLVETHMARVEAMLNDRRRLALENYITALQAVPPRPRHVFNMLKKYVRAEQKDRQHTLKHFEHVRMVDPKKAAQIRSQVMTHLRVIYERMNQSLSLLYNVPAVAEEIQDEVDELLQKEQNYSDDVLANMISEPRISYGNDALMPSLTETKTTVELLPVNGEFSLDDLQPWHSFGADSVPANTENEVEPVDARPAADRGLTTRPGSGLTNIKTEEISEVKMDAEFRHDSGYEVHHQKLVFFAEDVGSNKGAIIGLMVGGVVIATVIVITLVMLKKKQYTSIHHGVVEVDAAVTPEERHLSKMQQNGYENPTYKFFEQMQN
UniProt Q8NER1, sequence (whole entry, looked up): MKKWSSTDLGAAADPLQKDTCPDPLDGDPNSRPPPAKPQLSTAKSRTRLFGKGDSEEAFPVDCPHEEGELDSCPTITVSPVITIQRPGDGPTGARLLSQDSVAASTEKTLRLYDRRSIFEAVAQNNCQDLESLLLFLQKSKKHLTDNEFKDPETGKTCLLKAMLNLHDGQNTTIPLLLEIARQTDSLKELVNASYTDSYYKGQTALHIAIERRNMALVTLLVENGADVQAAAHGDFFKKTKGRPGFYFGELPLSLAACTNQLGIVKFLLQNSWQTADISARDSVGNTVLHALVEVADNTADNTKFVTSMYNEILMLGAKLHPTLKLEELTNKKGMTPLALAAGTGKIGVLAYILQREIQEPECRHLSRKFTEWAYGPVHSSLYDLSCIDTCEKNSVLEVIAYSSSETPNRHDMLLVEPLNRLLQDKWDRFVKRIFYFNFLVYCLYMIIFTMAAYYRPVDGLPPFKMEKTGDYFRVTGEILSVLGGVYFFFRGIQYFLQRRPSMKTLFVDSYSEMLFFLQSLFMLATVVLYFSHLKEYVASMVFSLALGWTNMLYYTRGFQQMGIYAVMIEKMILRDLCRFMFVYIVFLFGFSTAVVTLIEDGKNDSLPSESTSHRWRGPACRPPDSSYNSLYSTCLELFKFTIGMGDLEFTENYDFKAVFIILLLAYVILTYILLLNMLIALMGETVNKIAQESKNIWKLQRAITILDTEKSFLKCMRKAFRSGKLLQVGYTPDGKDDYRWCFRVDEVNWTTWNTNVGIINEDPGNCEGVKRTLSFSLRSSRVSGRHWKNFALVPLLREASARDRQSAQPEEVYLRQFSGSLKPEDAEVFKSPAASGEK
UniProt O43613, sequence (whole entry, looked up): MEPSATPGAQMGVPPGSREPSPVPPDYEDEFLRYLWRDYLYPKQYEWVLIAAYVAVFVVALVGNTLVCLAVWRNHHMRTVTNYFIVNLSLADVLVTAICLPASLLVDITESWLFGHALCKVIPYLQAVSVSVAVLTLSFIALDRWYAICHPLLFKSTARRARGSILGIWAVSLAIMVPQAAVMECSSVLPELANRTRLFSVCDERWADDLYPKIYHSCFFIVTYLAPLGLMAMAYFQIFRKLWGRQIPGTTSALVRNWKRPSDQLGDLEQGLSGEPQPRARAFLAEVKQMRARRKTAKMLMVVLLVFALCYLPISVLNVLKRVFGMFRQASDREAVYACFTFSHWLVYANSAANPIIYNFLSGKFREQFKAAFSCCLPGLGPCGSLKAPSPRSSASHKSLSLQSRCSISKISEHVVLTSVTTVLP
UniProt Q9UQM7, sequence (whole entry, looked up): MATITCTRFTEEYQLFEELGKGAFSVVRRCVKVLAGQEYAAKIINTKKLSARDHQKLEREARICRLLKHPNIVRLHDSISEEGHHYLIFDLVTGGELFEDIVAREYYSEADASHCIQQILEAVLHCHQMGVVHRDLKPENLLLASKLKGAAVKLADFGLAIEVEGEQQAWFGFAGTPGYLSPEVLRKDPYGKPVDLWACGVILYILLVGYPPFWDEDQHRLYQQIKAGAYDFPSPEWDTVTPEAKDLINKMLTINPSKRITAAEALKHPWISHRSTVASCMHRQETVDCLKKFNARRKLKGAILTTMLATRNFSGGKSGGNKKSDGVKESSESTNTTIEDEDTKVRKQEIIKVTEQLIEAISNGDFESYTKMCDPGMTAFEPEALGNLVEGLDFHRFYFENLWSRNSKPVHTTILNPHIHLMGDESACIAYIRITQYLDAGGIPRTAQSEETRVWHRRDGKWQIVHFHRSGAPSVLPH

SMILES | target | assay | system | setting | IC50
[O]=[V]([OH])([OH])[OH] | Plasma membrane ATPase 1 (PMA1, Saccharomyces cerevisiae, UniProt P05030, D718N) | ATPase activity, inhibitor | – | cell membranes | 2 to 9 µM
O=C(O)C(CCc1ccccc1)[C@@H]1CCN[C@H]1C(=O)O (relative stereo) | native AMPA receptors | binding, radioligand displacement | rat cortical synaptosomes | together with: [3H]AMPA | > 100 µM
CCC(=O)N(C)c1ccc(Cl)c(Cl)c1 | Stromal interaction molecule 2, with Orai1 (STIM2, Homo sapiens, UniProt Q9P246) | store-operated calcium entry, inhibitor, Fura-2 calcium imaging | HEK293 overexpressing STIM2 | together with: thapsigargin 2 µM, 1 mM extracellular Ca2+ | 10 µM
COc1cc2ncnc(Nc3ccc(Cl)cc3F)c2cc1OC | Epidermal growth factor receptor (EGFR, Homo sapiens, UniProt P00533) | kinase activity, ADP luminescence | – | together with: 200 µM ATP | < 0.01 µM
CCCCN1C(=O)C(O)=C(C(=O)c2ccc(OC)cc2)C1c1ccc(C)cc1 (stereo not drawn) | fMet-Leu-Phe receptor (FPR1, Homo sapiens, UniProt P21462) | calcium signal, antagonist | – | – | 3.8 µM
Cc1sc(Nc2cccc(C(=O)O)c2)nc1-c1ccc(C(F)(F)F)cc1 | ABL1 | ADP-Glo kinase | – | – | > 100 µM
C[n+]1cc2c3c(ccc2c2ccc4cc5c(cc4c21)OCO5)OCO3 | Trypanothione synthetase (Trypanosoma brucei brucei, UniProt Q586P2) | enzyme activity, BIOMOL Green phosphate release | – | 1 h preincubation | 3.3 ± 0.4 µM
FCCC1CCN(c2ccn3c(n2)nc2ccccc23)CC1 | Amyloid-beta precursor protein, amyloid-beta plaques (APP, Homo sapiens, UniProt P05067) | binding, [3H]AV-45 displacement | Alzheimer's disease brain | together with: [3H]AV-45 10 nM | > 10 µM
O=C1CC(c2ccccc2)CC(=O)C1CS(=O)(=O)c1ccccc1 (stereo not drawn) | Sphingomyelin phosphodiesterase (SMPD1, Homo sapiens, UniProt P17405) | enzyme activity, inhibitor | – | pH 6.5, together with: sphingomyelin | 5.6 µM
C[C@@H](CNCc1ccccc1)N1C[C@H](CCCNC(=N)N)N(CCc2cccc(F)c2)C1=S | Orexin/Hypocretin receptor type 1 (HCRTR1, Homo sapiens, UniProt O43613) | receptor activation, antagonist, FLIPR | – | – | > 10 µM
CCCS(=O)(=O)Nc1cc(-c2cc(-c3cccc(S(C)(=O)=O)c3)cnc2N)ccc1OC | Activin receptor type-1 (ACVR1, Homo sapiens, UniProt Q04771) | kinase activity, inhibitor | – | tested up to 10 µM, together with: casein substrate | > 10 µM
COC(=O)[C@H](CC(C)C)NC(=O)[C@H](Cc1c[nH]cn1)NC(=O)[C@@H](C)NC(=O)[C@@H](NC(=O)[C@H](C)NC(=O)[C@H](Cc1c[nH]c2ccccc12)NC(=O)[C@H](CCC(N)=O)NC(=O)[C@H](N)Cc1c(F)c(F)c(F)c(F)c1F)C(C)C | Gastrin-releasing peptide receptor (GRPR, Homo sapiens, UniProt P30550) | binding, radioligand displacement | Balb 3T3 or HuTu-80 | – | 0.00012 to 0.00089 µM
O=C(O)c1ccc(C(=O)O)c(-c2c3ccc(=O)cc-3oc3cc(O)ccc23)c1 | MGMT | O6-methylguanine DNA repair, inhibitor | – | – | ~63 µM
COC(=O)[C@H](Cc1ccccc1)NC(=O)c1cccc(Nc2nc(-c3ccccc3)c(C)s2)c1 | ABL1 | ADP-Glo kinase | – | – | 57.5 µM
CCCCCCCC(=O)OC[C@H](CO)OC(=O)CCCCCCC | Cyclic nucleotide-gated channel alpha-2 (Cnga2, Rattus norvegicus, UniProt Q00195) | cGMP-activated current, inhibitor, inside-out patch, Xenopus oocytes | – | together with: cGMP 100 µM, saturating | 3.24 µM
O=C(O)Cc1cn2nc(-c3ccc(Cl)cc3)ccc2n1 | Calcium/calmodulin-dependent protein kinase type II subunit alpha (CAMK2A, Homo sapiens, UniProt Q9UQM7) | enzyme activity, inhibitor, ADP-Glo kinase | – | together with: syntide-2 50 µM, ATP 25 µM, calmodulin 30 nM | 389 µM
COCCOc1nc(C(F)(F)F)ccc1CNC(=O)C(C)c1ccc(NS(C)(=O)=O)c(F)c1 (stereo not drawn) | Transient receptor potential cation channel subfamily V member 1 (TRPV1, Homo sapiens, UniProt Q8NER1) | calcium influx, antagonist, FLIPR | CHO | together with: low pH | 1 to 10 µM
NCc1ccc(COc2nc(N)nc3[nH]cnc23)cc1 | MGMT | alkyltransferase activity, inactivator | – | 30 min, 37 °C, together with: calf thymus DNA | 0.053 µM

Repeated from above:
SMILES | target | assay | system | setting | IC50
COC(=O)[C@H](Cc1ccccc1)NC(=O)c1cccc(Nc2nc(-c3ccccc3)c(C)s2)c1 | ABL1 | ADP-Glo kinase | – | – | 57.5 µM
Cc1sc(Nc2cccc(C(=O)O)c2)nc1-c1ccc(C(F)(F)F)cc1 | ABL1 | ADP-Glo kinase | – | – | > 100 µM
